# Measured values collected from several papers.
# Protocols differ between the studies behind these lines. Several values in a cell are separate wells, animals, samples, runs or records. Numbers after ± are the reported error.
# Sequence of UniProt Q8IVH8 (whole entry, unmodified, looked up): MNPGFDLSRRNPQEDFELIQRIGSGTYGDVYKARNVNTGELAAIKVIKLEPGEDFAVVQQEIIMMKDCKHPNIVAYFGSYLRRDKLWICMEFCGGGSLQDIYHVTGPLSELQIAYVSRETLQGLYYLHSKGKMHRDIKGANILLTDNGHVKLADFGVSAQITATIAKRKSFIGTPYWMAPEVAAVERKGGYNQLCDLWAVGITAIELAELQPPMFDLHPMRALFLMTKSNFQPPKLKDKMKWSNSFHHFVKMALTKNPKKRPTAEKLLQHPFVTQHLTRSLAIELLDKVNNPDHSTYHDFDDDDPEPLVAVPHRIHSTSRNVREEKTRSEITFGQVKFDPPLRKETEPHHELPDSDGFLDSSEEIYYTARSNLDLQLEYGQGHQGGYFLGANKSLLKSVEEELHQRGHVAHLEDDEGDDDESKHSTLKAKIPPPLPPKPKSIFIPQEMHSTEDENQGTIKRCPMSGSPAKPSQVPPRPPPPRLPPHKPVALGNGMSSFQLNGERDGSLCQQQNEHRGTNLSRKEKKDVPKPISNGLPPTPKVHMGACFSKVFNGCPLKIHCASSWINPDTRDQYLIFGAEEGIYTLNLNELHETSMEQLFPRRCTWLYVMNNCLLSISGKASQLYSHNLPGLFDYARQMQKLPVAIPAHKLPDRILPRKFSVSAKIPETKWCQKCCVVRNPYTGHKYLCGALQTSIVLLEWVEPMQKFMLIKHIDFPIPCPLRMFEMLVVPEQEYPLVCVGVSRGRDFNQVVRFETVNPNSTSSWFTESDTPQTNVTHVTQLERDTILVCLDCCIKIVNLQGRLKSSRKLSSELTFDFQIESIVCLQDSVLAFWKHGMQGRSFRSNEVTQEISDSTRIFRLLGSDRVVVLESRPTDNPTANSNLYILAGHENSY
# Sequence of UniProt Q92616 (whole entry, looked up): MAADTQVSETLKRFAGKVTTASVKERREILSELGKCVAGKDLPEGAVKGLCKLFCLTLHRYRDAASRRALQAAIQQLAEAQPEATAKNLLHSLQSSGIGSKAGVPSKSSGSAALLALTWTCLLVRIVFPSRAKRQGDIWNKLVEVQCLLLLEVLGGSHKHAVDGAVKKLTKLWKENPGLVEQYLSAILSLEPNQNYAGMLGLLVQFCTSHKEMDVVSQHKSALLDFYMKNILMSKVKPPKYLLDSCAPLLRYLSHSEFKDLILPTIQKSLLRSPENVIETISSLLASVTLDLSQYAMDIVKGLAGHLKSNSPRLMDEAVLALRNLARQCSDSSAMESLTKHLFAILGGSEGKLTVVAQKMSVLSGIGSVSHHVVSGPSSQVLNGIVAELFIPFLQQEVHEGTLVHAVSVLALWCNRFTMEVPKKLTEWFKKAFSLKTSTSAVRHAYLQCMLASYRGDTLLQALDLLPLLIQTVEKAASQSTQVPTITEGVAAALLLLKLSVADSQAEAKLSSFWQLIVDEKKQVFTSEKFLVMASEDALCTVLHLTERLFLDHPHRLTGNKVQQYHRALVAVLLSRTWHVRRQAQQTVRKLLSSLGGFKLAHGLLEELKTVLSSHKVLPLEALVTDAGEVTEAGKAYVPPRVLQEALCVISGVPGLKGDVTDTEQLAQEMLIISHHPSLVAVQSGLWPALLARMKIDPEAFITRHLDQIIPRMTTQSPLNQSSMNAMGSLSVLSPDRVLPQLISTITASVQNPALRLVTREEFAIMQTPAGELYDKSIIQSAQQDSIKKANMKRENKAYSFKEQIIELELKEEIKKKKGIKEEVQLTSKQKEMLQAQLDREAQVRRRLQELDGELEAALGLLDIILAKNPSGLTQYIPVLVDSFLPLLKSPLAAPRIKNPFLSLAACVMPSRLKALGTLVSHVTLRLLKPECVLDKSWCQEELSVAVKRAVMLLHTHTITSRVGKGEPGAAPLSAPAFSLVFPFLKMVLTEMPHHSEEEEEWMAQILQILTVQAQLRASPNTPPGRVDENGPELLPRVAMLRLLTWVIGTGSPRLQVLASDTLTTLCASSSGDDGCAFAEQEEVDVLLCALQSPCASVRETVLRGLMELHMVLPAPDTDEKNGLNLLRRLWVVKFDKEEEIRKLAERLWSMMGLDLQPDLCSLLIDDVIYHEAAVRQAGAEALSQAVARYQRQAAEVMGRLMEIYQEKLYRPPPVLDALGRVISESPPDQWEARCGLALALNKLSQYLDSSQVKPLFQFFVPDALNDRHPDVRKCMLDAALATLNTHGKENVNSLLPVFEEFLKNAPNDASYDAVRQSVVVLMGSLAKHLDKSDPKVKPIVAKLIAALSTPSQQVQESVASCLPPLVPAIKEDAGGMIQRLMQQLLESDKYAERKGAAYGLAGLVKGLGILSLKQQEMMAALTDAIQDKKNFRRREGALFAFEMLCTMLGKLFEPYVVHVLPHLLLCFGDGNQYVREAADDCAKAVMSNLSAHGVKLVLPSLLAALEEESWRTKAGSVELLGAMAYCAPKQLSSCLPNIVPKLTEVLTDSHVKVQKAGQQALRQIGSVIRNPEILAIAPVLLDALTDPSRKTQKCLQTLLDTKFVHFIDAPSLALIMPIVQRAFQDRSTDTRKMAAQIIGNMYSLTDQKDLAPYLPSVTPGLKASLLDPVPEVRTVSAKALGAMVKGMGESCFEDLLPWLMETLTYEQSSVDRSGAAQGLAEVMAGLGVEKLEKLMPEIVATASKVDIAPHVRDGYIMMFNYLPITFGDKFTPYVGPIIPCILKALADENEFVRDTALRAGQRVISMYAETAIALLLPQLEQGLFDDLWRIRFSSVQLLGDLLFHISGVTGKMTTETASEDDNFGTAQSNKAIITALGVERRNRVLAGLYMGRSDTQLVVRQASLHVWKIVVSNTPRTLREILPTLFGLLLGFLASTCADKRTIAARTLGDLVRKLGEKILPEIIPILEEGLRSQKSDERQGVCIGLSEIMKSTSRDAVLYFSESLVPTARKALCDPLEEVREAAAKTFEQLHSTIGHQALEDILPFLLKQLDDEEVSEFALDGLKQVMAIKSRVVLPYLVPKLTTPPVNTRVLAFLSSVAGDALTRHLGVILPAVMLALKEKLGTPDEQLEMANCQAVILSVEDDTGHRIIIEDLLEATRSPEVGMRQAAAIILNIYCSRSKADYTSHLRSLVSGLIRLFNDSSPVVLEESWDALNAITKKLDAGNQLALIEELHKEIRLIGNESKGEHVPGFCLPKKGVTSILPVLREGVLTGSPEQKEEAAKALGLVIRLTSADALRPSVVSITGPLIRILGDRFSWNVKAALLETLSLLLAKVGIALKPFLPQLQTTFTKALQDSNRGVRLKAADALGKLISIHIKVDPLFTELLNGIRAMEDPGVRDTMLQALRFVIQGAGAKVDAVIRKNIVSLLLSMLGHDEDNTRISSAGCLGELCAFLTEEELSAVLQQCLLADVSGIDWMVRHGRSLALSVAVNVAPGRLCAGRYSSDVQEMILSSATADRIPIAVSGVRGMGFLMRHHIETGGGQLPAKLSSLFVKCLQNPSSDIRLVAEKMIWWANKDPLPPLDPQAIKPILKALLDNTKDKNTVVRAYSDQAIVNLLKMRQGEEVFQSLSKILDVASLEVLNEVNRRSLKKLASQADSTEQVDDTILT
# Sequence of UniProt P10632 (whole entry, looked up): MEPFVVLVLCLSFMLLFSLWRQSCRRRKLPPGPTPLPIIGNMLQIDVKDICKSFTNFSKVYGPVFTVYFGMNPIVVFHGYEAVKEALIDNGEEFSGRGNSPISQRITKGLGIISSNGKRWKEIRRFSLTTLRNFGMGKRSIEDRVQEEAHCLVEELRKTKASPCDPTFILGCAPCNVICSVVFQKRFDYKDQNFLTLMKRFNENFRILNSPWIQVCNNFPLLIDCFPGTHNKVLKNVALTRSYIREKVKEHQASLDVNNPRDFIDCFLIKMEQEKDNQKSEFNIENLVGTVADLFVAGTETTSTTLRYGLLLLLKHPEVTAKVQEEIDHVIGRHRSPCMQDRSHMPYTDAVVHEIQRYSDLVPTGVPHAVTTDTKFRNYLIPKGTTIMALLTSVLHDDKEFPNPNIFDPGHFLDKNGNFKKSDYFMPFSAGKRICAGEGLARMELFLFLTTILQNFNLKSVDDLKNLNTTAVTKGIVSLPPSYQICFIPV
# Sequence of UniProt P07437 (whole entry, looked up): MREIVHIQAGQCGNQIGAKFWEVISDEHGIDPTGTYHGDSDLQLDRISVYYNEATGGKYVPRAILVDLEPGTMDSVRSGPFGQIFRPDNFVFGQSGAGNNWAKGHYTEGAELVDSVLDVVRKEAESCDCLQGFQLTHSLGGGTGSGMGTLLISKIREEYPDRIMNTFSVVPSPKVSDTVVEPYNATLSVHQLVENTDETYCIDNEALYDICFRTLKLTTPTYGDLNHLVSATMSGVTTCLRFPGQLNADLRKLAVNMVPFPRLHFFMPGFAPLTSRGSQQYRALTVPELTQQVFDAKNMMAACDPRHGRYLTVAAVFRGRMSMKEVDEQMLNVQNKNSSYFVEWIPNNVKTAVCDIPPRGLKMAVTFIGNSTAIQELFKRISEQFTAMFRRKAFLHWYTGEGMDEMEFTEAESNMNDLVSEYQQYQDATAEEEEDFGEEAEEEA
# Sequence of UniProt Q9UKP6 (whole entry, looked up): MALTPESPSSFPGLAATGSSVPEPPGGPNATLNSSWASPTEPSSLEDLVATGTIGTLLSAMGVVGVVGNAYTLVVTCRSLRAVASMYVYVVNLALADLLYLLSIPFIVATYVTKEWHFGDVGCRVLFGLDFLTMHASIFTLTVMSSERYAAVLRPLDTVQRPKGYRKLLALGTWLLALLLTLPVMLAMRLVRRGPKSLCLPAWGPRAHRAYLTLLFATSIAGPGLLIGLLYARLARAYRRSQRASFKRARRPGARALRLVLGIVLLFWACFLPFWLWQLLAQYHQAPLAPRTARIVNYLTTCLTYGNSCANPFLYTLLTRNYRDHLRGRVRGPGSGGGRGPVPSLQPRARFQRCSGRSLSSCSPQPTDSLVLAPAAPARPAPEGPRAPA
Structure (SMILES),target or system,assay,test system,conditions,scale,measurement,result
CCCCCCCCCCCCCCCC[N+](C)(C)CCCCCCCCCC[N+](C)(C)CCCCCCCCCCCCCCCC.[Br-].[Br-],influenza A virus A/PR/8/34 (H1N1),,,"concentration not given, post-treatment",,HA titre reduction,1 log units
COc1c(CCC[P+](c2ccccc2)(c2ccccc2)c2ccccc2)cc2c(c1OC)OCO2.[I-],NCI-H522,SRB,,,,TGI,-4.96 log M
CC(C)C[C@@H]1NC(=O)[C@H](CC(C)C)NC(=O)[C@H](Cc2c[nH]c3ccccc23)NC(=O)[C@H](CO)NC(=O)[C@H](Cc2c[nH]c3ccccc23)NC(=O)[C@@H]2CCCN2C(=O)[C@H](CC(C)C)NC(=O)[C@H](Cc2c[nH]cn2)NC(=O)[C@@H]2CCCN2C(=O)[C@H](CC(N)=O)NC(=O)[C@H](C)NC(=O)[C@H](Cc2ccc(O)cc2)NC(=O)[C@H](CS)NC(=O)[C@H](CCCCNC(=O)CN2CCN(CC(=O)O)CCN(CC(=O)O)CCN(CC(=O)O)CC2)NC1=O [lutetium-177 labelled],,,"BALB/c mice female 4T1 tumour, 4T1 tumour","intravenous, 3.7 MBq, 24 h, unblocked",,tumour uptake,5.74 ± 1 %ID
COc1cc(NC(=O)Cn2ccc3cc(F)c(-c4cnn(C)c4)cc32)cc(OC)c1OC,Plasmodium falciparum,parasite growth,Dd2-B2 PfATP4 V178I recrudescent,,,IC90,1240 nM
CCCCCCCCCCCCCCCC[N+](C)(C)CCCCCCCCCCCC[N+](C)(C)CCCCCCCCCCCCCCCC.[Br-].[Br-],influenza A virus A/PR/8/34 (H1N1),,,"concentration not given, post-treatment",,protection,64.3 ± 4.5%
C[C@@H](O)[C@@H](CO)NC(=O)[C@@H](CCCNC(=N)N)NC(=O)[C@@H]1CCCN1C(=O)[C@@H]1CSSC[C@H](NC(=O)[C@H](Cc2ccccc2)NC(=O)CN2CCN(CC(=O)O)CCN(CC(=O)O)CCN(CC(=O)O)CC2)C(=O)N[C@@H](Cc2ccc(O)cc2)C(=O)N[C@@H](Cc2ccccc2)C(=O)N[C@@H](CCC(N)=O)C(=O)N[C@@H](CC(N)=O)C(=O)N1 [gallium-68 labelled],,,"healthy Wistar rat, small intestine","intravenous, 8 MBq, 60 min",,tissue uptake,0.07 %ID/g
O=C(O)/C=C/C(=O)O.Oc1cccc2[nH]cc(CCNCc3ccccc3)c12,,,C57BL/6J mice,"subcutaneous, 3 mg/kg, 30 min",,distance travelled,2320 ± 227 cm
COc1cc2c(Oc3ccc4[nH]c(C)cc4c3F)ccnc2cc1OCC1(N)CC1,,,paediatric refractory sarcoma patients,12 mg,,mouth ulcer incidence,0%
COc1cc(Nc2ncc(F)c(Nc3ccc4c(n3)NC(=O)C(C)(C)O4)n2)cc(OC)c1OC,"UTS2R (Homo sapiens, UniProt Q9UKP6)",,,,,IC50,> 10000 nM
C[C@H]1CN(c2n[nH]c3nc(N[C@H]4CC[C@H](NS(=O)(=O)CCC(F)(F)F)CC4)ncc23)CCO1,"Stalled ribosome sensor GCN1 (Homo sapiens, UniProt Q92616)","Kinobeads competition, refers to: GCN1L1",,"0.8 µM, unit not given",reference: vehicle,remaining binding,1.08
C/C=C1\CN2CC[C@H]1C[C@H]2[C@H](O)c1ccnc2ccc(O)cc12,West Nile virus,"viral replication, Rluc reporter replicon",Vero WNV replicon cells,"50 µM, 24 h",,inhibition,33.7 ± 2.9%
C[C@]12CC[C@H]3[C@@H](CC=C4CC(O)CC[C@@]43CO)[C@@H]1CCC2O (stereo partly drawn),,refers to: ICAM1,"rat, GAN diet-induced MASH, plasma, pooled",dose not given,reference: vehicle,fold reduction,~1.2 fold
CC(C)(C)NCCc1c[nH]c2cccc(O)c12.CC(C)(C)NCCc1c[nH]c2cccc(O)c12.O=C(O)/C=C/C(=O)O,,,C57BL/6J mice,"subcutaneous, 30 mg/kg",,head twitch count,7.3 ± 1.2
C[C@H]1O[C@@H](O[C@H]2CC[C@@]3(C)[C@@H](CC[C@]4(C)[C@@H]3C=C[C@]35OC[C@@]6(CCC(C)(C)C[C@H]63)[C@@H](O)C[C@]54C)[C@]2(C)CO)[C@H](O)[C@@H](O[C@@H]2O[C@H](CO)[C@@H](O)[C@H](O)[C@H]2O)[C@H]1O,,histology,"hepatic SIRT1 knockdown mice, liver","dose not given, high dose, together with: chronic-plus-binge ethanol",,Oil Red O area,0.249% and 0.261% and 0.255%
CCNCCc1c[nH]c2cccc(O)c12.CCNCCc1c[nH]c2cccc(O)c12.O=C(O)CCC(=O)O,,,C57BL/6J mice,"subcutaneous, 10 mg/kg, 30 min session",,distance travelled,1600 ± 276 cm
CC(C)CC(=O)OC[C@H]1O[C@@](C#N)(c2ccc3c(N)ncnn23)[C@H](O)[C@@H]1O,"Cytochrome P450 2C8 (CYP2C8, Homo sapiens, UniProt P10632)",metabolic stability,recombinant enzyme,"1 µM, 30 min",,remaining compound,1.39 ± 0.0784%
CCCCNCCc1c[nH]c2cccc(O)c12.O=C(O)/C=C/C(=O)O,,,C57BL/6J mice,"subcutaneous, 30 mg/kg",,head twitch count,5 ± 1.1
NCCc1ccc(Oc2ccc(O)cc2)c(I)c1,,,TAAR1 knock-out mice,"ip, 25 mg/kg, 30 min",reference: saline,maximum body temperature change,-3 ± 0.2 °C
C=CCNCCc1c[nH]c2cccc(O)c12.C=CCNCCc1c[nH]c2cccc(O)c12.O=C(O)/C=C/C(=O)O,,,C57BL/6J mice,"subcutaneous, 0.1 mg/kg",,head twitch count,14.5 ± 3
CC[C@H](C)[C@H](NC(=O)[C@H](C)NC(=O)[C@H](CCCCN)NC(=O)[C@H](CC(C)C)NC(=O)[C@H](C)NC(=O)[C@@H](NC(=O)[C@H](Cc1c[nH]cn1)NC(=O)[C@H](CC(C)C)NC(=O)[C@@H](NC(=O)[C@@H](NC(=O)[C@H](CCCCN)NC(=O)[C@H](C)NC(=O)[C@H](C)NC(=O)[C@H](CO)NC(=O)[C@H](CCCCN)NC(=O)[C@H](Cc1ccccc1)NC(=O)[C@@H](NC(=O)[C@H](CCCCN)NC(=O)[C@H](CC(C)C)NC(=O)[C@H](Cc1ccccc1)NC(=O)[C@H](CO)NC(=O)[C@H](CCCCN)NC(=O)[C@H](Cc1c[nH]c2ccccc12)NC(=O)[C@H](CCCCN)NC(C)=O)[C@@H](C)O)[C@@H](C)O)C(C)C)[C@@H](C)O)C(=O)N[C@@H](CO)C(=O)N[C@@H](CO)C(N)=O,Enterococcus faecium,,,40 strains,,MIC90,64 µg/mL
O=C1c2c(O)c(=O)ccn2N([C@@H]2c3ccccc3SCc3c2ccc(F)c3F)[C@@H]2COCCN12,influenza A virus H1N1,,"A/WSN/33, BALB/c mice, lung","subcutaneous, 0.25 mg/kg every 6 h, 24 h",,lung virus titre,3 log10 TCID50/mL and 3.23 log10 TCID50/mL and 3.5 log10 TCID50/mL
O=c1ccn([C@@H]2O[C@](F)(CO)[C@@H](O)[C@H]2O)c(=O)[nH]1,human respiratory syncytial virus,,recombinant reporter virus,"concentration not given, scale 0 to 100, together with: adenosine 1.2 µM",,normalized viral replication,1.22 and 1.75 and 1.69
C[C@]1(CO)Cc2ncn(-c3ccc(C#N)c(Cl)c3)c2C(=O)O1,,,"human, Chinese, plasma","20 mg single dose, median",,tmax,1 h
CC[C@H](C)[C@@H]1NC(=O)[C@@H]2CCCN2C(=O)[C@H](CC(C)C)NC(=O)[C@H](CC(C)C)NC(=O)CNC(=O)[C@@H](NC(=O)[C@@H](NC(=O)[C@H](CC(=O)O)NC(=O)CNC(=O)[C@@H](NC(=O)[C@H](C)NC(=O)CNC(=O)[C@H](CCCCN)NC(=O)[C@H](CC(C)C)NC(=O)[C@H](CC(C)C)NC(=O)[C@H](CCCCN)NC(=O)CNC(=O)[C@@H](NC(=O)[C@@H](N)CC(C)C)C(C)C)C(C)C)C(C)C)CSSC[C@@H](C(=O)O)NC1=O,,"RNA-seq, refers to: Gimap3 mRNA","mouse traumatic brain injury, frontal cortex and hippocampus",dose not given,reference: TBI plus compound vs TBI,log2 fold change,-1.87
O=C(c1ccc(Cl)cc1)N1CCN2C(=O)N(OC(=O)N3CCOc4ccccc43)C(=O)C2C1 (stereo not drawn),"TUBB (Homo sapiens, UniProt P07437)",MS-based ABPP,SW-620 conditioned medium,10 µM,"reference: compound over DMSO, lower = more inhibition",peptide ratio,1.07
CO[C@H]1C[C@@H]2CC[C@@H](C)[C@@](O)(O2)C(=O)C(=O)N2CCCC[C@H]2C(=O)O[C@H]([C@H](C)C[C@@H]2CC[C@@H](OC(=O)NCCOCCOCCOCCOCCOCCOCCOCCOCCC(=O)N3CCc4cc(Cn5nc(-c6ccc7oc(N)nc7c6)c6c(N)ncnc65)ccc4C3)[C@H](OC)C2)C[C@@H](O)[C@H](C)/C=C(\C)[C@@H](O)[C@@H](OC)C(=O)[C@H](C)C[C@H](C)/C=C/C=C/C=C/1C,,dose-escalation trial,patients with advanced solid tumours,"intravenous, all doses weekly",,treatment-related serious AE incidence,9%
CN1CCN(S(=O)(=O)c2cc([N+](=O)[O-])ccc2N(CCOS(C)(=O)=O)CCOS(C)(=O)=O)CC1,,,"NSG mice, sample DC PDX","intraperitoneal, 25 mg/kg weekly x3",reference: vehicle,EFS delay (T-C),> 47.7 days
O=C(O)/C=C/C(=O)O.Oc1cccc2[nH]cc(CCNC3CCCCC3)c12,,,C57BL/6J mice,"subcutaneous, 0.1 mg/kg",,head twitch count,6.3 ± 0.9
CCCCCCCCCCCC[N+](C)(C)CCCCCC[N+](C)(C)CCCCCCCCCCCC.[Br-].[Br-],influenza A virus A/PR/8/34 (H1N1),,,"concentration not given, co-treatment",,protection,58.1 ± 5.9%
CCCNCCc1c[nH]c2cccc(O)c12.CCCNCCc1c[nH]c2cccc(O)c12.O=C(O)/C=C/C(=O)O,,,C57BL/6J mice,"subcutaneous, 3 mg/kg, 30 min",,distance travelled,2930 ± 305 cm
CC[C@H](C)[C@H](NC(=O)[C@H](Cc1ccccc1)NC(=O)[C@H](CCC(=O)O)NC(=O)[C@H](CCCNC(=N)N)NC(=O)[C@H](C)NC(=O)[C@H](C)NC(=O)[C@H](CCC(N)=O)NC(=O)[C@H](CCC(=O)O)NC(=O)[C@H](CCC(=O)O)NC(=O)[C@H](CC(C)C)NC(=O)[C@H](Cc1ccc(O)cc1)NC(=O)[C@H](CO)NC(=O)[C@H](CO)NC(=O)[C@@H](NC(=O)[C@H](CC(=O)O)NC(=O)[C@H](CO)NC(=O)[C@@H](NC(=O)[C@H](Cc1ccccc1)NC(=O)[C@@H](NC(=O)CNC(=O)[C@H](CCC(=O)O)NC(=O)[C@H](C)NC(=O)CCc1c[nH]cn1)[C@@H](C)O)[C@@H](C)O)C(C)C)C(=O)N[C@@H](C)C(=O)N[C@@H](Cc1c[nH]c2ccccc12)C(=O)N[C@@H](CC(C)C)C(=O)N[C@H](C(=O)N[C@@H](CCCNC(=N)N)C(=O)NCC(=O)N[C@@H](CCCNC(=N)N)C(=O)N[C@@H](CCCCNC(=O)COCCOCCNC(=O)COCCOCCNC(=O)CC[C@H](NC(=O)CCCCCCCCCCCCCCCCC(=O)O)C(=O)O)C(=O)NCC(=O)NCC(=O)N[C@@H](CO)C(=O)N[C@@H](CCCCNc1c(NCCCCCN(O)C(=O)CCC(=O)NCCCCCN(O)C(=O)CCC(=O)NCCCCCN(O)C(C)=O)c(=O)c1=O)C(=O)O)C(C)C [zirconium-89 labelled],,ex vivo gamma counting,"rat, femur","subcutaneous, 3 nmol/kg, 72 h, together with: [89Zr]-labelled peptide",,tissue uptake,0.11 %ID/g
COc1ccc(N2C(=O)N(c3c(C)cccc3Cl)Cc3cnc(Nc4ccc(C5CCN(C)CC5)cc4OC)nc32)nc1,"MAP4K3 (Homo sapiens, UniProt Q8IVH8)",kinase activity,,0.5 µM,,inhibition,83%
CCCCCCCCCCCCCCCCCC[N+](C)(C)CCCCCCCCCC[N+](C)(C)CCCCCCCCCCCCCCCCCC.[Br-].[Br-],influenza A virus A/PR/8/34 (H1N1),,,"concentration not given, pre-treatment",,protection,73.9 ± 3.2%

# For quick reference, copied from above:
Structure (SMILES),target or system,assay,test system,conditions,scale,measurement,result
CCNCCc1c[nH]c2cccc(O)c12.CCNCCc1c[nH]c2cccc(O)c12.O=C(O)CCC(=O)O,,,C57BL/6J mice,"subcutaneous, 10 mg/kg, 30 min session",,distance travelled,1600 ± 276 cm
CC(C)CC(=O)OC[C@H]1O[C@@](C#N)(c2ccc3c(N)ncnn23)[C@H](O)[C@@H]1O,"Cytochrome P450 2C8 (CYP2C8, Homo sapiens, UniProt P10632)",metabolic stability,recombinant enzyme,"1 µM, 30 min",,remaining compound,1.39 ± 0.0784%
CCCCNCCc1c[nH]c2cccc(O)c12.O=C(O)/C=C/C(=O)O,,,C57BL/6J mice,"subcutaneous, 30 mg/kg",,head twitch count,5 ± 1.1
NCCc1ccc(Oc2ccc(O)cc2)c(I)c1,,,TAAR1 knock-out mice,"ip, 25 mg/kg, 30 min",reference: saline,maximum body temperature change,-3 ± 0.2 °C
C=CCNCCc1c[nH]c2cccc(O)c12.C=CCNCCc1c[nH]c2cccc(O)c12.O=C(O)/C=C/C(=O)O,,,C57BL/6J mice,"subcutaneous, 0.1 mg/kg",,head twitch count,14.5 ± 3
